{"data": "Results from different studies", "note": "Parts stem from different laboratories: compare values within a part only. Positions count from the first letter of the parent shown."}
{"data": "Block 1", "target": "RNA binding protein fox-1 homolog 2, RRM domain, GST-SBP tag (RBFOX2, Homo sapiens, UniProt O43251-10, residues 100-194)", "technique": "RNA Bind-n-Seq", "molecule type": "RNA", "matrix": "in vitro", "concentration": "365 nM", "notes": "natural RNA segment, single round, ends assumed", "relative to": "no-protein control", "direction": "higher = stronger binding", "all sequences stand within": "GGGAGUUCUACAGUCCGACGAUC … UGGAAUUCUCGGGUGCCAA", "Construct (chain)": "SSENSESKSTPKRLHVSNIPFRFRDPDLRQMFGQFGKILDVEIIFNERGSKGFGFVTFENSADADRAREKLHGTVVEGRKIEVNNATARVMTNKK"}
{"Sequence": "UGAGUUAUAUGUGGUAGAUUAUAUUGACUCCAACCAUCAGCCUUUCUGAUGAGCCUGUAGAGAAGCCUAGAGAGCCCCGGGCCAUCUGAUGAUGUCACCAGUGCUGCCUC", "RBNS enrichment (R)": 0.304}
{"Sequence": "UUUCUUGUAUAAAUAGGAGUCAUGGGCGUUAGUUCUGUAGUAAUAACUUCCCAGCACCUGGACAUCUCUUCCAGAGUUAUCCCACUGGCUUGGUGUGUAUACAUUAGGGG", "RBNS enrichment (R)": 0.257}
{"Sequence": "UCAACCUGAGACCAAUAUGCCAGGCCAAGCACAGCCUCCUGGUAUCUCUGGAGCACAACUACAGCAAACCUCCUCAGUGCCUACGGGACUUGCCAGCAGUGGAGCAUGCA", "RBNS enrichment (R)": 1.44}
{"Sequence": "UGUGCGGGGACUGGCCGAGGCCCCUGCACCCUGCGCAUCAGGACUGCUUCAUCGUCUUGGCUGAGAAAGGGAAAAGACACACAAGUCGCGUGGGUUGGAGAAGCCAGAGC", "RBNS enrichment (R)": 0.895}
{"Sequence": "UAGUGGUGAGGGCCCUCUGUUGCAGGGGCAUGGGGAAAUGCAUAUAUUAAUCAGGGGCUGGAGGAGUAUACAUGAUUCUUGUGUUCAUGUUGUCAUUUGAAACUCUUCAC", "RBNS enrichment (R)": 0.976}
{"Sequence": "AGGGUUCUUAUUUGAGGCUUUGCUAGGCUCAUCUGCUGUGUCCUGGGUAGUCCACUCAUAUUCUUGCAGGGUGAGUCCAUGCUCAGGAGAAUGCGGUCCACCUUUCUAUG", "RBNS enrichment (R)": 1.03}
{"Sequence": "GGCUCCCUUCAUGGCUUGUGAACUGUUAACUUGGUAUCUCAGGUUAAACUGUCAGCUGGUCUAGCCUGAGCGAGGCCUGAGACCAUCAGUCACUAAGAGCAGUGGCUAAC", "RBNS enrichment (R)": 0.577}
{"Sequence": "UGUGUGUGGUGUCGCGCCCUCUCCCCUUGGGGGCUGGGUGGGCACACCCUCCCCUCUUGUCUACUCACUCCUAGGGCGUUUCUUUGCCGAUUUUUGAAUGUGAUUUUAAA", "RBNS enrichment (R)": 5.51}
{"Sequence": "AUAGAGAAACUACAGCUCUGCCCAUUGUCCUGGGGUCCUGGAACUUCGUCCAGUGUUAAGAACUGAGCCAAGGAGAAGCACGAGCAGCCUUCGCACCUGGAGGGUCAGAA", "RBNS enrichment (R)": 1.32}
{"Sequence": "GUUUUUAAAACCCAGUCCACAAAAUAACCAAUCCUGGACAUGAAGAUUCUUUCCCAAUUCACAUCUAACCUCAUCUUCUUCACCAUUUGGCAAUGCCAUCAUCUCCUGCC", "RBNS enrichment (R)": 1.28}
{"Sequence": "UGAUAGAACAAGAGCCCAGGCUUCCUGUUUCCAAGUCACCUGUGUUUCCUGGGACCAAAUAAUGAGCACCUGCUGGAGUCUGGGCAGAGCAGCCUGGCUCCCUUCUACCC", "RBNS enrichment (R)": 0.239}
{"Sequence": "GCAUCCGGGUCACUCCUUCUCCGCUUUUUCUUGCAGAUGGGCCUAGGCCGGUGUCGGUUCUGUUUCUCCCCUUGGCUGCCUGUACGCCCACAGCCUUCUGGCUGCGACAU", "RBNS enrichment (R)": 0.221}
{"data": "Block 2", "target": "RING finger protein unkempt homolog, zinc fingers 1-6, SBP tag (UNK, Homo sapiens, UniProt Q9C0B0, residues 30-357)", "technique": "RNA Bind-n-Seq", "molecule type": "RNA", "matrix": "in vitro", "concentration": "100 nM", "notes": "RNA with constant flanks, vertebrate orthologous sites, ends assumed", "relative to": "input RNA pool", "direction": "higher = stronger binding", "all sequences stand within": "GGGAGUUCUACAGUCCGACGAUC … CAACAGAGGAUUGAGCAUCA", "chain of UniProt Q9C0B0 (30-357, looked up)": "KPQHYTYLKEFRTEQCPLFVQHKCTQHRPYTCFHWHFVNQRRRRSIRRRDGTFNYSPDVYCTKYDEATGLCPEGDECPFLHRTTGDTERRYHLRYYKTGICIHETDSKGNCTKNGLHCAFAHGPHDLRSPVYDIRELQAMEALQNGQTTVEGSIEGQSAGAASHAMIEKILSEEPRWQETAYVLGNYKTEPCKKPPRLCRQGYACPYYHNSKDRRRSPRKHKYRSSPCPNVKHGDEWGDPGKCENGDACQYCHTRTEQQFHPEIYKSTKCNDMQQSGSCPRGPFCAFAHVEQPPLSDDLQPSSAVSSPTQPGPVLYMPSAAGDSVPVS"}
{"Sequence": "CAGUCAUGGAGAAAAAGAUAUUAAAAUAAUUUCAUGGCACUGAUGUUAAUUCUAGUCUAUUAGUUUUAUAAAAGUUAGGGUUCUUAUUUAGGAACAACAGGAAGUGACUGUUAAGGAGAA", "bound/input enrichment [ratio]": 1.66}
{"Sequence": "GUGGCACCCCCUGUGAGAGGGAGUAGGGGGAGCUCAGGAUGACCCUCAGCUGUUCCAAUCCAGUAUUUUUUUCUUUUUUAAAAAAUUACUGUAUUUAUUAUGACGAUGGUGACUCCCCAG", "bound/input enrichment [ratio]": 0.458}
{"Sequence": "AGCAACUCAAGGAUUCAGGACUGGUUUUACACAUGUCCCAAGCAGAUAUGGAACUGGCACUCGAGGUCAACCCCAGCCAUAAUAAACUCUAUUUUGCGUUAUUUAUUGUACAUAAGGGUA", "bound/input enrichment [ratio]": 0.34}
{"Sequence": "UGUAUGUACAUUAUUCACAUUCCUCUCUGUUGUGUUUGGGGGGGGGGGGAAAAAGACUUUUUAGCCUUUUUUAAGGUUACUGAUUUAAUUUCAUGUUAUUUGGUUGCAUGAAGUUGCCCU", "bound/input enrichment [ratio]": 0.946}
{"Sequence": "GUACUGCCCGUGCAAAUCCCACAACACUGAAUGCAAAGUAGCAAUUUCCAUAGUCACAGUUAGGUAGCUUUAGGGCAAUAUUGCCAUGGUUUUACUCAUGUGCAGGUUUUGAAAAUGUAC", "bound/input enrichment [ratio]": 1.33}
{"Sequence": "ACAGGAGCAGCAUAGGCUGUUUGAGCUUUGGGGAAAUGAGCUUUGCUUUUUAUAUUUAACUAGGAUACUUUUAUAUGAUGGGUGCUUUGAGUGUGAAUGCAGCAGCCUCUCUUGUUUCCG", "bound/input enrichment [ratio]": 1.63}
{"Sequence": "ACCUAAUGUCCACUGCUAAGCCAACAAUCCUAGAGCUCUGUGUGUGUGUAGUUUUGUAUAUAGUAAUGCCAACCUCGUUGCUGAAUGUUACAUCUGGAGGAGAAACGGGUUCGAGCCUGA", "bound/input enrichment [ratio]": 0.786}
{"Sequence": "GAUAUUGAAUAGUAUUAAACAUUUUUGUCUUCCUUUAUCUUUUAUCCCCUACCUGAUAUCUAGUCUACUUUUUUAAAUUUCAGACUUCACUGCUCUUUGAAUUGAUAAUUCCAAUUUUCA", "bound/input enrichment [ratio]": 1.88}
{"Sequence": "UAUUCCUGUCAUACCAGCAUAUUUACCUCUCGUCUGUGCACAGCUUCAAAUGUUACCGUCUAGUUAGAUUUUUAUUUAAAAUAUGAAAAACUGCUUUUCCCAAGAUGUUUUUUUAAAGAC", "bound/input enrichment [ratio]": 1.53}
{"Sequence": "GUUGGGUCAUGAUGCAUACAGGCUAGGUCAUGAAGCAUACAGGUUAGGACAAGACCCCUAUAGAUUAGGCCAUGAUCCCUACAGACUAACUCCUGAUCCCUACAGGAUGUCACCUAGACC", "bound/input enrichment [ratio]": 0.607}
{"Sequence": "AAAUAUUUUAUCAUUUGAUUAAAAUUAGAUAAGAAAUUACUGUUCAUUUUUCCUUUGCAACAAGCUUAUCCUAUUUUUUAAUCUAUUUUGCAAAAUAUCGGUUGUGUAUGGUUGCUUGAC", "bound/input enrichment [ratio]": 0.491}
{"data": "Block 3", "target": "ABI1, truncated, D143A, DHFR fusion (Arabidopsis thaliana)", "technique": "DHFR PCA, deep sequencing", "matrix": "yeast", "notes": "methotrexate growth selection, single substitutions", "added": "(+)-ABA 0.39 µM", "relative to": "wild-type fitted maximum", "direction": "higher = stronger binding", "starting sequence": "PYL1, truncated, DHFR fusion (Arabidopsis thaliana); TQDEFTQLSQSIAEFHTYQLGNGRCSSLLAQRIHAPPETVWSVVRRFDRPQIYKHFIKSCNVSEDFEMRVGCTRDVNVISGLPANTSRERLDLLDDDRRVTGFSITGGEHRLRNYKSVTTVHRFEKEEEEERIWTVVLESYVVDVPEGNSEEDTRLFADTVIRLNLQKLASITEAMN"}
{"Change": "Q167C", "relative binding score [%]": 22.8}
{"Change": "T86M", "relative binding score [%]": 30.7}
{"Change": "I172R", "relative binding score [%]": 6.51}
{"Change": "F5Q", "relative binding score [%]": 24.7}
{"Change": "F15W", "relative binding score [%]": 45.1}
{"Change": "P37M", "relative binding score [%]": -4.02}
{"Change": "C25T", "relative binding score [%]": 56.7}
{"Change": "A30R", "relative binding score [%]": 17.5}
{"Change": "E67H", "relative binding score [%]": 13.9}
{"Change": "R111N", "relative binding score [%]": 4.26}
{"Change": "E127R", "relative binding score [%]": 46.4}
{"Change": "T120N", "relative binding score [%]": -4.52}
{"Change": "T160I", "relative binding score [%]": -17.9}
{"Change": "R111S", "relative binding score [%]": -2.19}
{"Change": "T6Y", "relative binding score [%]": 36}
{"Change": "R163K", "relative binding score [%]": 54.3}
{"Change": "P37D", "relative binding score [%]": 6.13}
{"Change": "L29C", "relative binding score [%]": 18.4}
{"data": "Block 4", "target": "CCNB2, cyclin fold, Cln2 fusion (human)", "technique": "yeast growth competition, sequencing", "matrix": "yeast", "notes": "weak parent motif", "relative to": "not given", "direction": "higher = stronger binding", "starting sequence": "PKN2 docking peptide (human); VSAVQKLDFSDTM; partner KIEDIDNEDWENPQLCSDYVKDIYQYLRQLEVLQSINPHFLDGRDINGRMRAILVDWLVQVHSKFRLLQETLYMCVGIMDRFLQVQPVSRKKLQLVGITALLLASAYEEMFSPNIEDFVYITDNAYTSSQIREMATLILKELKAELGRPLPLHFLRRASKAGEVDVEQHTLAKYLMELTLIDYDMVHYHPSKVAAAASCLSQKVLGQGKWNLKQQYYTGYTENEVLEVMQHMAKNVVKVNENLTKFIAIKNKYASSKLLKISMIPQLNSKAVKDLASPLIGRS"}
{"Change": "S10P", "normalised enrichment score": -0.0376}
{"Change": "V4A", "normalised enrichment score": -0.226}
{"Change": "M13G", "normalised enrichment score": 0.00619}
{"Change": "S10D", "normalised enrichment score": 0.0439}
{"Change": "D8V", "normalised enrichment score": 0.00781}
{"Change": "F9H", "normalised enrichment score": -0.395}
{"Change": "V1S", "normalised enrichment score": 0.36}
{"Change": "V4W", "normalised enrichment score": -0.312}
{"Change": "L7K", "normalised enrichment score": -0.497}
{"Change": "K6N", "normalised enrichment score": 0.0254}
{"Change": "M13A", "normalised enrichment score": -0.181}
{"Change": "S10K", "normalised enrichment score": -0.425}
{"Change": "S2P", "normalised enrichment score": -0.125}
{"Change": "V1A", "normalised enrichment score": 0.282}
{"Change": "V4Y", "normalised enrichment score": -0.212}
{"Change": "K6E", "normalised enrichment score": -0.381}
{"Change": "K6C", "normalised enrichment score": -0.00901}
{"Change": "V1L", "normalised enrichment score": 0.142}
{"Change": "M13T", "normalised enrichment score": -0.0665}
{"Change": "T12S", "normalised enrichment score": 0.396}
{"Change": "L7I", "normalised enrichment score": -0.532}
{"Change": "T12H", "normalised enrichment score": -0.14}
{"Change": "D8C", "normalised enrichment score": -0.00761}
{"Change": "V1Y", "normalised enrichment score": 0.363}
{"Change": "F9N", "normalised enrichment score": 0.215}
